Measurements pooled from the literature.
Parts stem from different laboratories: compare values within a part only. Positions count from the first letter of the parent shown.

Sample 1
Target: Sal-like protein 4, full length isoform B (SALL4, Homo sapiens, UniProt Q9UJQ4-2, residues 1-616)
Method: universal PBM
Molecule type: double-stranded DNA, one strand shown
Medium: in vitro
Tested at: not given
Setting: 8-mer, flanks averaged, mean of replicates
Reading: higher = stronger binding
Residues (chain): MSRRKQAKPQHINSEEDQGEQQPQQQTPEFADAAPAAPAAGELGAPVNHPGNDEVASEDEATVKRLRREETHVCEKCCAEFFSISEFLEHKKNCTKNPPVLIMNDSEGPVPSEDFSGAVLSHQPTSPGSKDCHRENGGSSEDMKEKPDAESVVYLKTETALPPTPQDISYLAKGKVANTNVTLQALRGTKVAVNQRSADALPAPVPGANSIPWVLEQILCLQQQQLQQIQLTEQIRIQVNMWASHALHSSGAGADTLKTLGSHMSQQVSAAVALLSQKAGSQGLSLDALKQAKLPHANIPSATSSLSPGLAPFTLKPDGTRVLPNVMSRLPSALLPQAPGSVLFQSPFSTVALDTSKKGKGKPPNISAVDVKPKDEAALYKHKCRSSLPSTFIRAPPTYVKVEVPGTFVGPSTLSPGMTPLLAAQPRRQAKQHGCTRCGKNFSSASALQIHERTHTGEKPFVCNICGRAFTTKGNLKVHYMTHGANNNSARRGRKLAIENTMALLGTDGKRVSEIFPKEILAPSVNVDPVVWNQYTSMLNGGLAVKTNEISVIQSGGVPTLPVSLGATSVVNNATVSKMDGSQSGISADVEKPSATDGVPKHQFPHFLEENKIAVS
| Sequence | E-score |
| --- | --- |
| AACAGACG | -0.148 |
| CGCACTAA | 0.0173 |
| CACGGGAG | -0.174 |
| CTTGGGTC | -0.0538 |
| GGGGGGTA | -0.249 |
| AAATGTAG | 0.163 |
| AGGAACAA | -0.0367 |
| CGACAACC | -0.176 |
| TACCTGGA | -0.109 |
| ATTTAACG | 0.252 |
| CTATAAAC | 0.279 |
| AGAGATTG | 0.0705 |
| GCAGTCCC | -0.385 |
| CTGTGTGA | -0.0548 |
| AGACAGAG | -0.0283 |

Sample 2
Target: PABPC1L2, full length, GST fusion (mouse, UniProt A0ABA7IW68)
Method: RNAcompete
Molecule type: RNA
Medium: in vitro
Tested at: 20 nM
Setting: 7-mer, probes averaged, single round
Reference: mean of 7-mers
Reading: higher = stronger binding
Residues (chain): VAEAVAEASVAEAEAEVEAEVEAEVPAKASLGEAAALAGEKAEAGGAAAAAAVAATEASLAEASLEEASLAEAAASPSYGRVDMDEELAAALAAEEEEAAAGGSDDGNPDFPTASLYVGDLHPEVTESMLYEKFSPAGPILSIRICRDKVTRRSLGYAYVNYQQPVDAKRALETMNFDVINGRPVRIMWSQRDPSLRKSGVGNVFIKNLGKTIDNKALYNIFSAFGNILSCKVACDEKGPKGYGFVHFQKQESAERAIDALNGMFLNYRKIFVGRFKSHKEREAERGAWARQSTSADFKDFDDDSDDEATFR
| Sequence | 7-mer Z-score |
| --- | --- |
| GUGUCGU | -0.456 |
| GAGCAAC | 0.12 |
| GCAACGU | -0.171 |
| CCCCUCC | -0.505 |
| ACAUUUU | -0.0935 |
| ACACGGU | -0.0047 |
| GGGGUAG | 0.195 |
| UAAUACU | -0.164 |
| CACCAGA | -0.0192 |
| GACAGGU | -0.128 |

Sample 3
Target: CCND1, cyclin fold, Cln2 fusion (human)
Method: yeast growth competition, sequencing
Medium: yeast
Setting: weak parent motif
Reference: not given
Reading: higher = stronger binding
Starting sequence: MASTL docking peptide (human); PMIAKNLMCELDE
| Substitution | normalised enrichment score |
| --- | --- |
| I3L | 0.174 |
| K5G | -0.297 |
| L11E | 0.191 |
| M8H | 0.218 |
| L7I | 0.202 |
| D12N | -0.0925 |
| L11P | 0.00834 |

Mixed results
| Substance | target | test | test system | conditions | scale | quantity | value |
| --- | --- | --- | --- | --- | --- | --- | --- |
| PhoQ, residues 284 288 289 292 302 303 SSTLSG | PhoP, residues 12 14 15 18 19 TPLRH (Escherichia coli, UniProt P23836) | Sort-seq, item: YFP reporter | E. coli | PhoQ-PhoP variant library, together with: 10 µM Mg2+ | reference: high Mg2+ state, higher = stronger signaling | fold induction | 4.82 |

For quick reference, copied from above (sample 2):
| Sequence | 7-mer Z-score |
| --- | --- |
| ACACGGU | -0.0047 |
| GACAGGU | -0.128 |
| GCAACGU | -0.171 |
